Assay results from different studies.
Numbers after ± are the reported error.

Structure (SMILES) | assay | test system | setting | how to read | measurement | result
CC(C)[C@H](NC(=O)CNC(=O)[C@H](CCC(N)=O)NC(=O)[C@H](C)N)C(=O)O | serious adverse event | human | 30 mg/kg, 3 days, thrice daily dosing | – | subjects with adverse events | 0%
CC[C@H](C)C(=O)N1CCC(NC(=O)Nc2ccc(OC(F)(F)F)c(F)c2)CC1 | – | human, plasma | oral, 24 mg, single dose, healthy volunteers | – | Vd/F | 153 L
CC(C)C[C@H](NC(=O)[C@H](CCCCN)NC(=O)[C@H](C)NC(=O)[C@@H]1CCCN1C(=O)[C@@H]1CCCN1C(=O)[C@H](CCCCN)NC(=O)[C@H](CCCCN)NC(=O)[C@H](CO)NC(=O)[C@H](CCC(=O)O)NC(=O)[C@H](CCCCN)NC(=O)[C@H](CCCNC(=N)N)NC(=O)[C@H](CCC(N)=O)NC(=O)[C@H](CCC(N)=O)NC(=O)[C@@H](NC(=O)[C@H](CCCNC(=N)N)NC(=O)[C@H](CCC(N)=O)NC(=O)[C@H](Cc1cnc[nH]1)NC(=O)[C@H](CCC(=O)O)NC(=O)[C@@H]1CCCN1C(=O)[C@H](CO)NC(=O)[C@H](CC(C)C)NC(=O)[C@H](Cc1ccccc1)NC(=O)[C@H](CO)NC(=O)[C@H](CO)NC(=O)CN)C(C)C)C(=O)N[C@@H](CCC(N)=O)C(=O)N1CCC[C@H]1C(=O)N[C@@H](CCCNC(=N)N)C(=O)O | ELISA | healthy humans, both sexes, plasma | intravenous infusion, 4 µg/kg/h, 210 min | – | clearance | 1.7 ± 0.9 mL/min/kg
[2H]C([2H])([2H])C([2H])([2H])C([2H])([2H])OC(C(=O)OC1CCNCC1)(c1ccccc1)c1ccccc1 | refers to: oropharyngeal pain | healthy Japanese male | oral, 15 mg once daily, 16 days | – | adverse events | 14.3%
COC(=O)C[C@](O)(CCCC(C)(C)OC(C)=O)C(=O)O[C@@H]1C(OC)=C[C@]23CCCN2CCc2cc4c(cc2[C@H]13)OCO4 | – | CD1 mouse, stomach | oral, 1 mg/kg, 24 h, below quantification limit 1.00 ng/mL | – | tissue concentration | not detected
CC(C)(CCCC/C=C/CCCCCC(C)(C)C(=O)O)C(=O)O | – | beagle dog, plasma | intravenous, 5 mg/kg | – | clearance | 0.13 mL/min/kg
COCCOCCOCCOc1ccc(/C=C/c2c(I)c(C)c3n2[B-](F)(F)[N+]2=C(C)C(I)=C(C)C2=C3c2cc(OC)cc(OC)c2)cc1 | DPBF absorbance decrease | DMSO | – | baseline: methylene blue | singlet oxygen quantum yield | 0.78
CC[C@H](C)[C@H](N)C(=O)N[C@@H](CO)C(=O)N[C@@H](Cc1ccc(O)cc1)C(=O)NCC(=O)NCC(=O)N[C@@H](C)C(=O)N[C@@H](CC(=O)O)C(=O)N[C@@H](Cc1ccc(O)cc1)C(=O)N[C@@H](CCCCN)C(=O)O | forced swim test | ICR mice | intrathecal, 30 nmol, 30 min before test, minutes 2 to 6 | – | immobility time | 140 ± 6.5 s
O=C([O-])C[N+]12CC(=O)[O][Re-2]1[O]P(=O)([O-])C2.[C-]#[O+].[C-]#[O+].[C-]#[O+] (stereo not shown) | HPLC | aqueous solution | 1 d, pH 3, room temperature | – | isomer fraction at equilibrium | 10%
CC[C@H](C)[C@H](NC(=O)CNC(=O)[C@H](Cc1c[nH]c2ccccc12)NC(=O)[C@@H](NC(=O)[C@@H](NC(=O)[C@H](CC(C)C)NC(=O)[C@H](CCC(N)=O)NC(=O)[C@H](CC(C)C)NC(=O)[C@@H](N)CC(C)C)[C@@H](C)O)C(C)C)C(=O)N[C@@H](CCCCN)C(=O)N[C@@H](CCC(N)=O)C(=O)N[C@@H](CC(C)C)C(=O)N[C@@H](CCC(N)=O)C(=O)N[C@@H](C)C(=O)N[C@@H](CCCNC(=N)N)C(=O)N[C@H](C(=O)N[C@@H](CC(C)C)C(N)=O)[C@@H](C)CC | C2 column | – | – | – | RP-HPLC retention time | 18.2 min
O=C(CN1CCN(c2cc3c(cc2F)c(=O)c(C(=O)O)cn3C2CC2)CC1)Nc1ccc(Cl)cc1 | – | – | – | baseline: DMSO over water | solubility ratio | > 1000 fold
CN(C)C(CNC(=O)Nc1cc(C(F)(F)F)ccc1N1CCOCC1)c1ccncc1 (stereo not shown) | – | mouse, serum | intraperitoneal, 360 mg/kg single dose | – | serum osmolarity | 365 mmol/L
C[S]1CC[S]2CC[P](CO)(CO)[99Tc+]12.[C-]#[O+].[C-]#[O+].[C-]#[O+] | – | CF-1 mouse | intravenous, 24 h | – | uptake in large intestine | 2.7 %ID
CSCC[C@H](NC(=O)CNC(=O)[C@H](CC(=O)O)NC(=O)[C@@H](NC(=O)[C@@H](NC(=O)[C@@H](NC(=O)CNC(=O)[C@H](CCC(N)=O)NC(=O)[C@H](CCSC)NC(=O)[C@H](CC(=O)O)NC(=O)[C@H](C)NC(=O)[C@H](C)NC(=O)[C@@H](NC(=O)[C@H](CO)NC(=O)[C@@H](N)CC(C)C)[C@@H](C)O)C(C)C)C(C)C)[C@@H](C)O)C(=O)N[C@@H](C)C(=O)N[C@@H](CO)C(=O)NCC(=O)N[C@@H](CC(C)C)C(=O)N[C@@H](CC(=O)O)C(=O)N[C@@H](CCCCN)C(=O)N[C@@H](CC(=O)O)C(=O)N[C@@H](Cc1ccc(O)cc1)C(=O)N[C@@H](CC(C)C)C(=O)N[C@@H](CCCCN)C(=O)N1CCC[C@H]1C(=O)N[C@@H](CC(=O)O)C(=O)N[C@@H](CC(=O)O)C(=O)O | – | human, serum | intravenous, 3.33 mg/kg, patients, infusion | – | half-life | 6.42 min
C/C=C/C=C/C/C=C/CCCCCCCc1cccc(O)c1O | – | female Kunming mice, tumour-bearing, spleen | intravenous, 10 mg/kg, 1 h | – | tissue concentration | 10500 ± 1390 ng/g
CC[C@H](C)[C@H](NC(=O)[C@H](CCC(=O)O)NC(=O)[C@H](CCC(=O)O)NC(=O)[C@H](Cc1ccccc1)NC(=O)[C@H](CC(=O)O)NC(=O)CNC(=O)[C@H](CC(N)=O)NC(=O)CNC(=O)CNC(=O)CNC(=O)CNC(=O)[C@@H]1CCCN1C(=O)[C@H](CCCNC(=N)N)NC(=O)[C@@H]1CCCN1C(=O)[C@H](N)Cc1ccccc1)C(=O)N1CCC[C@H]1C(=O)N[C@@H](CCC(=O)O)C(=O)N[C@@H](CCC(=O)O)C(=O)N[C@@H](Cc1ccc(O)cc1)C(=O)N[C@@H](CC(C)C)C(=O)O | LC-MS/MS | human plasma | 4 h, 25 °C, stability, nominal 3.0 ng/mL | – | concentration | 3.04 ± 0.1 ng/mL
C[C@H](NC(=O)[C@H](CCC(=O)O)NC(=O)[C@H](Cc1c[nH]cn1)NC(=O)[C@H](Cc1c[nH]cn1)NC(=O)CN1CCN(CC(=O)O)CCN(CC(=O)O)CCN(CC(=O)O)CC1)C(=O)N[C@@H](Cc1ccc(O)cc1)C(=O)NCC(=O)N[C@@H](Cc1c[nH]c2ccccc12)C(=O)N[C@@H](CC[S+](C)[O-])C(=O)N[C@@H](CC(=O)O)C(=O)N[C@@H](Cc1ccccc1)C(N)=O (stereo partly shown) | – | MF1 nude mouse, male, AR-42J xenograft | intravenous, 0.2 µg, 4 h, 111In-labelled | baseline: tumour over kidney | tumour-to-kidney ratio | 0.1
CN[C@](C)(C[18F])C(=O)O | – | SCID mouse DU-145 xenograft, brain | 15 min, post injection | – | tissue uptake | 0.3 ± 0.03 %ID/g
CC(C)C[C@@H](NC(=O)[C@@H](CCCCN)NC(=O)CNC(=O)CNC(=O)[C@@H]1CSSC[C@H](N)C(=O)NCC(=O)N[C@@H](CCCNC(=N)N)C(=O)N[C@@H](CCCNC(=N)N)C(=O)N[C@@H](C)C(=O)NCC(=O)NCC(=O)N[C@@H](CO)C(=O)N1)C(=O)N[C@H](C)C(=O)N[C@H](CCCCN)C(=O)N[C@H](CC(C)C)C(=O)N[C@H](C)C(=O)N[C@H](CCCCN)C(=O)N[C@H](CCCCN)C(=O)N[C@H](CC(C)C)C(=O)N[C@H](C)C(=O)N[C@H](CCCCN)C(=O)N[C@H](CC(C)C)C(=O)N[C@H](C)C(=O)N[C@H](CCCCN)C(=O)O | – | cynomolgus monkey | intravenous infusion, 3 mg/kg, 2 h infusion | – | elimination rate constant | 0.78 ± 0.22 h⁻¹
C[C@]12CC[C@H](OC(=O)NC3CCNCC3)C[C@H]1CC[C@@H]1[C@@H]2CC[C@]2(C)[C@@H](c3ccc(=O)oc3)CC[C@]12O | – | male Sprague-Dawley rat, plasma | intravenous, 5 mg/kg, single dose | – | AUC(0-inf) | 15200 ng·h/mL
CC[C@H](C)[C@H](NC(=O)[C@H](CCCCN)NC(=O)CNC(=O)[C@H](CC(C)C)NC(=O)[C@@H](NC(=O)[C@H](C)NC(=O)[C@H](CCCCN)NC(=O)CNC(=O)[C@H](C)NC(=O)CNC(=O)[C@H](CCCCN)NC(=O)[C@H](CCSC)NC(=O)[C@H](CCCCN)NC(=O)[C@@H](NC(=O)[C@H](Cc1c[nH]c2ccccc12)NC(=O)[C@H](CC(C)C)NC(=O)[C@H](CCC(N)=O)NC(=O)[C@H](CCCCN)NC(=O)[C@H](CC(C)C)NC(=O)[C@@H](N)CC(C)C)[C@@H](C)O)C(C)C)C(=O)N[C@@H](CCCCN)C(=O)NCC(=O)N[C@@H](CC(C)C)C(=O)N[C@@H](CC(C)C)C(=O)O | acrylamide quenching | PBS, no lipid | 2 µM, with: acrylamide | – | Stern-Volmer constant | 15.4 ± 0.17 M⁻¹
CC[C@H](C)[C@H](NC(=O)[C@H](CCCCN)NC(=O)[C@@H](NC(=O)[C@H](CCC(N)=O)NC(=O)[C@H](CCCNC(=N)N)NC(=O)[C@@H](N)CC(=O)O)[C@@H](C)CC)C(=O)N[C@@H](Cc1c[nH]c2ccccc12)C(=O)N[C@@H](Cc1ccccc1)C(=O)N[C@@H](CCC(N)=O)C(=O)N[C@@H](CC(N)=O)C(=O)N[C@@H](CCCNC(=N)N)C(=O)N[C@@H](CCCNC(=N)N)C(=O)N[C@@H](CCSC)C(=O)N[C@@H](CCCCN)C(=O)N[C@@H](Cc1c[nH]c2ccccc12)C(=O)N[C@@H](CCCCN)C(=O)N[C@@H](CCCCN)C(=O)N[C@@H](CC(C)C)C(=O)N[C@@H](CC(=O)O)C(=O)N[C@@H](C)C(=O)N[C@@H](CO)C(=O)N[C@@H](C)C(=O)N[C@@H](CC(C)C)C(=O)O | open field | 5XFAD transgenic mouse | intranasal, 0.1 mg/kg every 2 days, 30 days | – | locomotor activity | no effect

A few entries again:
Structure (SMILES) | assay | test system | setting | how to read | measurement | result
CC[C@H](C)C(=O)N1CCC(NC(=O)Nc2ccc(OC(F)(F)F)c(F)c2)CC1 | – | human, plasma | oral, 24 mg, single dose, healthy volunteers | – | Vd/F | 153 L
CC(C)C[C@H](NC(=O)[C@H](CCCCN)NC(=O)[C@H](C)NC(=O)[C@@H]1CCCN1C(=O)[C@@H]1CCCN1C(=O)[C@H](CCCCN)NC(=O)[C@H](CCCCN)NC(=O)[C@H](CO)NC(=O)[C@H](CCC(=O)O)NC(=O)[C@H](CCCCN)NC(=O)[C@H](CCCNC(=N)N)NC(=O)[C@H](CCC(N)=O)NC(=O)[C@H](CCC(N)=O)NC(=O)[C@@H](NC(=O)[C@H](CCCNC(=N)N)NC(=O)[C@H](CCC(N)=O)NC(=O)[C@H](Cc1cnc[nH]1)NC(=O)[C@H](CCC(=O)O)NC(=O)[C@@H]1CCCN1C(=O)[C@H](CO)NC(=O)[C@H](CC(C)C)NC(=O)[C@H](Cc1ccccc1)NC(=O)[C@H](CO)NC(=O)[C@H](CO)NC(=O)CN)C(C)C)C(=O)N[C@@H](CCC(N)=O)C(=O)N1CCC[C@H]1C(=O)N[C@@H](CCCNC(=N)N)C(=O)O | ELISA | healthy humans, both sexes, plasma | intravenous infusion, 4 µg/kg/h, 210 min | – | clearance | 1.7 ± 0.9 mL/min/kg
